# Results from different studies.
# Parts stem from different laboratories: compare values within a part only.

# Study 1
# Target: Histone acetyltransferase KAT6A, both winged helices, GST fusion (KAT6A, Homo sapiens, UniProt Q92794, residues 1-181)
# Technique: protein binding microarray
# Form: double-stranded DNA, one strand shown
# Medium: in vitro
# Tested at: not given
# Setting: 8-mer, flanks averaged, mean of 2 arrays, mostly near background
# Baseline: not given
# Direction: higher = stronger binding
# Construct (chain): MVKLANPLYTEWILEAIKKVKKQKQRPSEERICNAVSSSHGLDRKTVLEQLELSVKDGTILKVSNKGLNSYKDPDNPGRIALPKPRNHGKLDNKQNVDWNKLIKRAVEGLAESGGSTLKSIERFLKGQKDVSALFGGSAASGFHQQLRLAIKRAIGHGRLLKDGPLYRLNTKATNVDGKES
Strand,E-score
AATGTAGT,-0.129
CATGTGCC,-0.0299
AAGCGCCT,0.195
GGGCGATA,0.12
TCCTGCAA,-0.172
ATAACGCA,-0.00212
ATGACTAA,-0.138
ATCGAGGG,-0.109
CAGCTTCA,-0.146
CGAATCAC,-0.0452
CGTCAGTA,0.0434
AAATTCGG,0.0722
AACCAGTG,-0.114
TGACAGCA,-0.038
CTCAATAC,-0.0972
AGTTCGCG,0.255
ACGGACGC,0.172
CGATCGGC,0.292
CTTAATTA,-0.165

# Study 2
# Target: RING finger protein unkempt homolog, zinc fingers 1-6, GST-SBP tag (UNK, Homo sapiens, UniProt Q9C0B0, residues 30-357)
# Technique: RNA Bind-n-Seq
# Form: RNA
# Medium: in vitro
# Tested at: not given
# Setting: RNA with constant flanks, ends assumed
# Baseline: input RNA pool
# Direction: higher = stronger binding
# Constant ends, left off below: GGGAGUUCUACAGUCCGACGAUC … CAACAGAGGAUUGAGCAUCA
# Construct (chain): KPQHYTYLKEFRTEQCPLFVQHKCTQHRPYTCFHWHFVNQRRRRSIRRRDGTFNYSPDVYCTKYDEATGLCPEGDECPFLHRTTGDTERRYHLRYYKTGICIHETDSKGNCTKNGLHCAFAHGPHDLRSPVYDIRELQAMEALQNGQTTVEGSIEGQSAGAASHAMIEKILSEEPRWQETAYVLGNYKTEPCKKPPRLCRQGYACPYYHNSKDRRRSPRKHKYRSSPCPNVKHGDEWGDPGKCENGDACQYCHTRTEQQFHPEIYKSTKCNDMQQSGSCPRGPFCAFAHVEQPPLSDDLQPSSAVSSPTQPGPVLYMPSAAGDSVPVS
Strand,bound/input enrichment [ratio]
UGAUUGGAUUAUUUGAAUGAAAUUUGCACACAACGAUUGAGUUGAACCUGCUUACUAUUUUCCGGAUUGUUUUAUUGUACUAACAACUUUUAAAGACUAUGAAGUAAAUAUUUCACGUAG,0.442
CUCAAUGGCUUGGAACCAGAAAAUAUCCACAUGAUGAUUGGGUCUAUGACAAUCGACUGCUCCGGAAUUCUAAAUGAUCUCUCCGACUGUGAAGAUAAGCUCUUUCCUAUUGGAUAUCAG,0.271
CCUGGGAACAGCACCCAGUACAACAUCCUGGAAGGGUUGGAAAAGCUCAAACAUCCCGACUUUCUGAAGCAGCCACUGGCCACCCAAAAGGAUCUCACUGGCCAGGUGCCCACUCCUGUG,0.198
ACCAUGAUGGAGGGUCAACUGAUCUCCGUAGCAGCCAGGGCAAAGUGAAUGACCUCAGAAACCCGGAAUUCUUGCAAAGACACUGCCUAAUAGUGUGAUUUUGAAACCUUGAUACAAAAG,0.334
UUAAUAACAAGCAACUGCACAUCAAAGUCAGUUCCUGUAAGGAGACGUUCAUUUGAAUUUUCCGAUUUGCUGCUGCAAGAAUGGCAGACUCAUUCACUGGAAAGACAUGCAGCUGUUUUG,0.0839
UCAUUGACCACCAUGAUAAUACCUACACAGUCAAGUACAUUCCUGUGCAGCAGGGCCCAGCCGGUGUCAAUGUCACUUAUGGAGGAGAUCACAUCCCCAAGAGUCCAUUUUCAGUGGGAG,0.129
AGUAUUAAAAAAAUCAUACAUGUGCUGGAGAAGGUCCAGUAUCUUGAACAAGAAGCCGAAGAAUUUGCCGGAAAAAAGACAGACAAAGCAUACUGGCUUCUGGAAGAAAUGCUAACCAAG,0.2
AAAGGCAGCUGUGUUAUUUCAUAAAUAACUUGGGAGAAACUGCAUCCUAAGUGGAAGAACCCGUUUGUUUUAGUUUUCCCAGAUAAAACCAACAUGCUUUUUAAGGAAGGAAGAAUGAAA,0.194
UUGAGACCUUGUGUACUAAGAGCAAGGAAGUAUAGCUAAGAUGUCUAGAUUAUUUAUAUGCCGUAUGGUGGGGAGUGGGGCUGCAAGGAAGGGGGCUGACAUUGUAAAUGAGAAAAUCAG,11.5
AAAACUAUUCUACAGUGCAAAAAAUACCAGCGAACUCCUGUUUAAGAAAAAUAUCCUUGAUUCCGUAAAUGAAUUUCCUGAGAAGAUUGCAUGCAGUUUGCAUGUUACAAAACAGACUAC,0.414
AGUUUCUCCAGAGGAAGCAAUCAAAUGUGAGGACAAAUUCACAAAAUCCAAAACUGUUUACCGCAUUCUUCGCCAUGUUGCUGAGGUAUUAGAAUAUACCAAGGAUGAGCAGCUGGAGAG,0.139

# Study 3
# Target: RNA binding protein fox-1 homolog 2, RRM domain, GST-SBP tag (RBFOX2, Homo sapiens, UniProt O43251-10, residues 100-194)
# Technique: RNA Bind-n-Seq
# Form: RNA
# Medium: in vitro
# Tested at: 365 nM
# Setting: natural RNA segment, single round, ends assumed
# Baseline: no-protein control
# Direction: higher = stronger binding
# Constant ends, left off below: GGGAGUUCUACAGUCCGACGAUC … UGGAAUUCUCGGGUGCCAA
Strand,RBNS enrichment (R)
UGUCUGUGGGUUCGUCUGCCCAGGGCCUGGAGCCCAAGCCCUGUGUUCCUGGGGAAGCUGGGGACUUGGGAAGUGAUGGGUGUGUCAUGUUGCGUGUGUCUGUCUGUGAG,4.37
CAAAAACCAAACAAACUGGCAGACAGGCCAGGGAUGUAUGUUGCUUGCUUGAGAGGGUUUCUUUUACUUCAAAAUCUUUCUUCAGGGAGCAAGACAUGAACUGACUAAUU,0.642
GCAUUUUCAAAGGUCGGAGAUCUUUCUUCUGCCUGAGUUGGUCAUGUAGCAAUUUUUUCCUAAACACAAAAUGGCCUUUUGCUUGUCUGGUAAUGAGAUUGUAAAUCCAU,1.19
UCCUCAUGGACAUAAAAUACAUUCUUAGUUAUUAUCAUUAUGUCAAACAAGAAUGGCAAGCCUAAGUUUGUGAGGCAUCAUCACAAUUCUGUCAAAAUAAUGUUAUGCUU,0.633
UUUGAAGGCAACAAGAACCAAACAGGAUCUUGUCAUCACAUCUGAAUAAAGCUCCAUGAGCUGGCUGAAAGCUGGACACGCAUUUGCCUUUUUUUUUUUGCCACCUCUUU,0.855
UGUAGCAGAAUGGUAUUUUCCUCAAGUAGCUCAUAAUACUGCCAAAUCUCAAAAGUUAAGCUGAAUUUCACACCAGAUCCUACCCCUUUCCCUGAGCCACAUGUUUCACA,0.722
AACAGCUCAGCCCAGUCCUGGGCACAGACACUACACAAGGCAAUGCUGGAAUUGAAACAAUACUUUAAUACCGUUUAAGUUUGUUUCCUUUUUUUUUUUCCUCUUUUUUU,0.393
GAUUUUACUUACGCUACCUCUCCAAUGCUGGCUUCAUUUUAAUUGUGUUUUAUAUGCUCAUUUAAAAUGACUUUUCAGUGUUCUUCAGUUUAAAAUCUGUUGUUUGACUU,0.386
AGUAUUUGUGAAAUCAGAGCUGACAUGUAAGCUAUUCUUGUAAUAUCUCAUUAUUUUGAAAGAUUUAUAUAAUGAACUCUGGCUAUCUGACAAUAAAAUGGAUGAAAAAG,0.36
AUUUUUCUUCUAUUUAACGGAAAACUUGACUUUGGUGAAUGUGCAUUACUUCCUUUUAUUUUGCUCUUUAAAUAAUAAAAUUCAAGAAGCAUAUUCUAUGUGGAAUAGAU,1.11
CCAGUCACCCAGGGAAUAACAACUUAAGCUGUAGUUAGAUAACACCUAGUGAUUAAUUGGCUGAGAAAACCCUGGAGUGGAGGGAGGCUCAGAGAUACUGAUAUGGAUGU,0.561
UGGGCCCCACAUCAUGGGAAAGGCUGUCAAAUAUCUUUCCCAAGCUCCAAGGCACUCAUUUGCUCCUUCCCCAGCCUCCAAUUAGAACAAGCCACCCACCAGCCUAUCUA,0.524

# Study 4
# Target: Interferon regulatory factor 5, full length, phosphomimetic (IRF5, Homo sapiens, UniProt Q13568-2, residues 1-514, K96S/S451D/S453D/S456D/S462D)
# Technique: protein-binding microarray
# Form: double-stranded DNA, one strand shown
# Medium: in vitro
# Tested at: 250 nM
# Setting: 60-bp whole probe
# With: salmon DNA 0.4 mg/ml
# Baseline: random background probes
# Direction: higher = stronger binding
# Constant ends, left off below: GCCTAGCAC … GTCTTGATTCGCTTGACGCTGCTG
Strand,log fluorescence [z-score]
TTAGGTAACCTTATCCTTTAGTGCTAG,-0.0691
GACGGTATCGGGTTCGGGACGTGCTAG,2.24
AACGGTCTCCTACTGCTGACGTGCTAG,-0.153
GACGATATCATTATCGAGACGTGCTAG,2.85
GACGGCCTGGGTCTCGGGACGTGCTAG,-0.613
TCATATGTAATCATTCACACTGTGCTA,0.872
TACGGTTTCGGTCTCGGGACGTGCTAG,9.69
AGCAAAAATGATTGGTTGAAGTGCTAG,-0.122
TATCATTTAATTATATGGCTGTGCTAG,5.58
TTAGATTTCAGTATCGATTGGTGCTAG,8.16
GACGATTTCAGTTTCGAGACGTGCTAG,7.32
GACGGTTTAGGACTGGGGACGTGCTAG,-0.164
TGAGGTCTCGGACTGGGTTAGTGCTAG,-0.527
AACGGACTGGACTATCGGGACGTGCTA,0.663
CTAGGTCTCGGACTGGGTTAGTGCTAG,-0.475
TCATTTCCCTATTATATAACTGTGCTA,1.69
TCAAATTAGTGTTTTGCACTGTGCTAG,0.0645
GACGGTCTCGGCATCGGGACGTGCTAG,-0.0853
TTAGGTTTAGGGTATCGGTTAGTGCTA,2.38
TTACATTTTAATTTTATTTGGTGCTAG,1.46
TACGGTTTCGACTTTCGGGACGTGCTA,8.24
TGGGCATTTTTTTTATCAATGTGCTAG,0.207
TTAGAACTGAGACTGAATTAGTGCTAG,0.0497
TTTGAACTGAGTATCGATTAGTGCTAG,6.26
TTAGATTTCGGGTAACGATTAGTGCTA,5.5
